Measurements pooled from the literature.
Lines come from different studies, so protocols differ.
Capn2: Calpain-2 catalytic subunit (Capn2, Mus musculus, UniProt O08529)
UniProt O08529, sequence (whole entry, looked up): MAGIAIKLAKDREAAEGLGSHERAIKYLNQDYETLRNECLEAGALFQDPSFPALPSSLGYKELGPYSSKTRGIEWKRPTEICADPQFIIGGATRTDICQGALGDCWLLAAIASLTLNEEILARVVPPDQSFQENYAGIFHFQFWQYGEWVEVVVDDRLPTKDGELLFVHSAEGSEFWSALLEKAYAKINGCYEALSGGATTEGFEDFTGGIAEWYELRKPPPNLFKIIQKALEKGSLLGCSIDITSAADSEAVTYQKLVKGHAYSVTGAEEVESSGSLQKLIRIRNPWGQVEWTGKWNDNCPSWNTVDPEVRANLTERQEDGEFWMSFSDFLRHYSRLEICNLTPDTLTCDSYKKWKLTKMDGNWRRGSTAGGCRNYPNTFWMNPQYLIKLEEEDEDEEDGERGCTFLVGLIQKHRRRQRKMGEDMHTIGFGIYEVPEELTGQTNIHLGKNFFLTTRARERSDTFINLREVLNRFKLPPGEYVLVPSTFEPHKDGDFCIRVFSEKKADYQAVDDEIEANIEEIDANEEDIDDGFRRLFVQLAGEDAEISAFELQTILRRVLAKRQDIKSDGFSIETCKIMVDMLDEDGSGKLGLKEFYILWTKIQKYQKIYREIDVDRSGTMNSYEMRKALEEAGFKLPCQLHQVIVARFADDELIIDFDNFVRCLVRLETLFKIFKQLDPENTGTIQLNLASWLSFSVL
CA12: Carbonic anhydrase 12 (CA12, Homo sapiens, UniProt O43570)
UniProt O43570, sequence (whole entry, looked up): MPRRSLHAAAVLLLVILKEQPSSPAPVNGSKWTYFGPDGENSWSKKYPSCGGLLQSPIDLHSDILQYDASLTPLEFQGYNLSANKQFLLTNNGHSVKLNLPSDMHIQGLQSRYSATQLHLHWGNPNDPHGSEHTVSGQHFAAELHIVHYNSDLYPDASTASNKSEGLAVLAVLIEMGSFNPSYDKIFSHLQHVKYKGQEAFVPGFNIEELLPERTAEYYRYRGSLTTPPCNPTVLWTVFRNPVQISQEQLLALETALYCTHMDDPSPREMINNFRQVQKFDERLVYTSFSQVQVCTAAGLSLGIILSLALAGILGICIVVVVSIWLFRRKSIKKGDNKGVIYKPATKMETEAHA
Chromobox protein homolog 8: Chromobox protein homolog 8 (Homo sapiens, UniProt Q9HC52)
UniProt Q9HC52, sequence (whole entry, looked up): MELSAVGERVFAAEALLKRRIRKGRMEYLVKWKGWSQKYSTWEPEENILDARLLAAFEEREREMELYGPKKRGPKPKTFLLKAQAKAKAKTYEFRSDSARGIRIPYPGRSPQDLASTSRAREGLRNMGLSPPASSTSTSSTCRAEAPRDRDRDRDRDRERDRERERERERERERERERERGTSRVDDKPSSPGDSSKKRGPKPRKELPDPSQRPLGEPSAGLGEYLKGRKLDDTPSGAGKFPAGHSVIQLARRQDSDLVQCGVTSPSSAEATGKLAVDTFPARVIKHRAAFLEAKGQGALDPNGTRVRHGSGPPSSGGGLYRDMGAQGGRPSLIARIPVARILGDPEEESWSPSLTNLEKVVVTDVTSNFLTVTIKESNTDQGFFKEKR
UniProt P08173, sequence (whole entry, looked up): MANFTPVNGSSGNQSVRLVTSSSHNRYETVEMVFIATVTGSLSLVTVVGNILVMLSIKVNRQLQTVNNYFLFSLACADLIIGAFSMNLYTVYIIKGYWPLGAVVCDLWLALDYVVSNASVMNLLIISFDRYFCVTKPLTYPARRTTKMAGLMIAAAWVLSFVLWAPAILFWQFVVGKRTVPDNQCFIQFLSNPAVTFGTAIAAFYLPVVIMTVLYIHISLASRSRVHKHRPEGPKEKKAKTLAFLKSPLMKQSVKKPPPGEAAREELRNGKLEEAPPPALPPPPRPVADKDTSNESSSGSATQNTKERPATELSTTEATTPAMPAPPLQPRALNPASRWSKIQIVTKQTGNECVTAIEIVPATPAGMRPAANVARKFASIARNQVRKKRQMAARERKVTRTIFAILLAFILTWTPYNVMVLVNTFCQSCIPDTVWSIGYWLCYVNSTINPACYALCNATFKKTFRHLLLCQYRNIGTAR
UniProt P00519, sequence (whole entry, looked up): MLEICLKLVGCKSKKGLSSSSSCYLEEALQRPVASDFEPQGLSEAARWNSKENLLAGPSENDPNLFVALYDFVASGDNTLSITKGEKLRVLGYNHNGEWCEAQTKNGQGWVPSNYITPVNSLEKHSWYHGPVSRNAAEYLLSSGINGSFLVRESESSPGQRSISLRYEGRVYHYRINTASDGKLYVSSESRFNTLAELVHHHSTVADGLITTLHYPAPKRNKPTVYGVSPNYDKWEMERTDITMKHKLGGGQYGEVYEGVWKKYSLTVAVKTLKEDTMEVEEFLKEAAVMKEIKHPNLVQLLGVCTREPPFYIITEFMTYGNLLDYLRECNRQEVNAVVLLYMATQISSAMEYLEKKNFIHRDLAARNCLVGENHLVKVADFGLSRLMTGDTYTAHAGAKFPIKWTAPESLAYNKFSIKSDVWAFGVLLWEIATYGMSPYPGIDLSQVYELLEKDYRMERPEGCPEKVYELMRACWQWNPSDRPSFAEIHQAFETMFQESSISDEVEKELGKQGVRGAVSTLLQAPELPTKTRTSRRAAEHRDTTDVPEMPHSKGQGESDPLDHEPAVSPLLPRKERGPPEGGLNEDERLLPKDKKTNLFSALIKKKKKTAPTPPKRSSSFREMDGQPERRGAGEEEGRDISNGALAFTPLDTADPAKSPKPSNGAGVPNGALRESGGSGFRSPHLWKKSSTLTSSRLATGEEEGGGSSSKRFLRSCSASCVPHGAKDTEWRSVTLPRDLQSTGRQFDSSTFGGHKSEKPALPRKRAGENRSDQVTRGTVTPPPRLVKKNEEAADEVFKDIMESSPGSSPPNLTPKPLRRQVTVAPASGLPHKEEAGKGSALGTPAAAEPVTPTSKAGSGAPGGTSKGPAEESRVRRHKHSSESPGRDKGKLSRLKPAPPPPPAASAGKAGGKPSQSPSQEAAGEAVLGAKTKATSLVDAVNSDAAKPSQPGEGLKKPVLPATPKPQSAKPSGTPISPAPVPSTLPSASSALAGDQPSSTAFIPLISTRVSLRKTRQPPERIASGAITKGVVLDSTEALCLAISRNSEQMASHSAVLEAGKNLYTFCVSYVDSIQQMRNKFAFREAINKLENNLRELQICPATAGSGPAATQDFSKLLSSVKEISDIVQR
UniProt Q9NR56, sequence (whole entry, looked up): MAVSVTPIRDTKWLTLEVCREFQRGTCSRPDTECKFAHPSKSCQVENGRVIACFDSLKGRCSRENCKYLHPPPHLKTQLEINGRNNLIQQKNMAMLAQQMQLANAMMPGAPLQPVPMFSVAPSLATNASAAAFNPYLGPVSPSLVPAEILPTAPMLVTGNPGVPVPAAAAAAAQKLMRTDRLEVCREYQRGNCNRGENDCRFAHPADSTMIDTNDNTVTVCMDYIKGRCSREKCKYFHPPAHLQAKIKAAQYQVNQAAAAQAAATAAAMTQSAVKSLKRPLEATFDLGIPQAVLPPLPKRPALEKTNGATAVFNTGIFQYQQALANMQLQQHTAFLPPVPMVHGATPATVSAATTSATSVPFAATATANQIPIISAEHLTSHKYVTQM
UniProt Q02127, sequence (whole entry, looked up): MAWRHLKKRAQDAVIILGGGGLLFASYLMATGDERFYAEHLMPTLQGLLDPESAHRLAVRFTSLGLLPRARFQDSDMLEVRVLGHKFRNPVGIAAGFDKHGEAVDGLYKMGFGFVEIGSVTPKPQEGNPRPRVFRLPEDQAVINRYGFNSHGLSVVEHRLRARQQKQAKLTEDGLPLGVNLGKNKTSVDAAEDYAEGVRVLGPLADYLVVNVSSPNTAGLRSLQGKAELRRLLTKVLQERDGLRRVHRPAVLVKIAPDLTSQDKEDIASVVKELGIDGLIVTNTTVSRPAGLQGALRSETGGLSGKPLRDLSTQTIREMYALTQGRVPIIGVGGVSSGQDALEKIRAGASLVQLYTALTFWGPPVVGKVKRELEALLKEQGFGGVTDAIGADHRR
UniProt O95503, sequence (whole entry, looked up): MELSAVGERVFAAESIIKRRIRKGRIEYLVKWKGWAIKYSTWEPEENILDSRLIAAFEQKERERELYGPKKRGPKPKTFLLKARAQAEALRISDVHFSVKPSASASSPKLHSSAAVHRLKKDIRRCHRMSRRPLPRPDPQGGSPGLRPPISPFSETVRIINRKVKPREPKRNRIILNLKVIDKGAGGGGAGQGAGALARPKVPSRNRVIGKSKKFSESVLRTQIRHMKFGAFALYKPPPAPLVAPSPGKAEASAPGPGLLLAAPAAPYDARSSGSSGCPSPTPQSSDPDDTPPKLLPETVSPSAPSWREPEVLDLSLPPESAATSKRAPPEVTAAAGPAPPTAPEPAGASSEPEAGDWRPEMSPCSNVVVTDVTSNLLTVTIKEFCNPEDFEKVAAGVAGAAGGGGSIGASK
UniProt P10636, sequence (whole entry, looked up): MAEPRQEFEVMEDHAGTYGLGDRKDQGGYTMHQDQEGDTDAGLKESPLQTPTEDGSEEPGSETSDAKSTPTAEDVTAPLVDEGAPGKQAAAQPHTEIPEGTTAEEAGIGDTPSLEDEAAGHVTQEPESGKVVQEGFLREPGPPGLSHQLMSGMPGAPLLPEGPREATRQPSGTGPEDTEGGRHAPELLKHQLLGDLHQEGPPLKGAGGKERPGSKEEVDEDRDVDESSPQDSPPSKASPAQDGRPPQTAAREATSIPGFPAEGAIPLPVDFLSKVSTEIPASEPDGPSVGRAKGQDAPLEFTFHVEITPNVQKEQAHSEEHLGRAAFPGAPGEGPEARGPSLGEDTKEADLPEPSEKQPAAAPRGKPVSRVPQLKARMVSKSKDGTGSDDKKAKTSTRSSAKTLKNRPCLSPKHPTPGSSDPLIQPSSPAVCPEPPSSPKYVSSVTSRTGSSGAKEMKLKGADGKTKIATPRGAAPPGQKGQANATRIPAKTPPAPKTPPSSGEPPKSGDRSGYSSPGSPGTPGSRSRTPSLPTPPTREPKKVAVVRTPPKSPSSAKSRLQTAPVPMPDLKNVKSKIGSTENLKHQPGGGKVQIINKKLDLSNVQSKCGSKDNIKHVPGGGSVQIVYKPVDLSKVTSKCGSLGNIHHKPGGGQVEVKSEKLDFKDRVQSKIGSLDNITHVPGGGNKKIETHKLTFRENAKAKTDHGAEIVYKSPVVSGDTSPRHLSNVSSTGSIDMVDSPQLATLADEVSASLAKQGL

SMILES	target	assay	test system	conditions	scale	selectivity ratio
OC(Cc1cc(-c2ccc(C(O)C(F)(F)F)s2)sc1-c1ccc(-c2sc(-c3ccc(C(O)C(F)(F)F)s3)cc2CC(O)C(F)(F)F)s1)C(F)(F)F (stereo not drawn)	Microtubule-associated protein tau, 0N4R isoform, aggregated (MAPT, Homo sapiens, UniProt P10636)			tau 20% sucrose fraction, Aβ40 200 min	baseline: Kd Aβ40 over Kd tau	50 fold
CCC(NC(=O)C(CC(C)C)NC(=O)NCc1ccccc1)C(=O)C(=O)NCc1cc(OC)cc(OC)c1 (stereo not drawn)	Capn2		mouse pons-cerebellum membranes	with: calcium 2 mM	baseline: IC50 calpain-1 over calpain-2	13
NS(=O)(=O)c1c(F)c(F)cc(F)c1N[C@H]1CCCc2ccccc21	CA12	thermal shift			baseline: Kd CA XII over Kd CA II	4.5
CCC(NC(=O)C(CC(C)C)NC(=O)Nc1ccncc1)C(=O)C(=O)NCc1cc(OC)cc(OC)c1 (stereo not drawn)	Capn2		mouse pons-cerebellum membranes	with: calcium 2 mM	baseline: IC50 calpain-1 over calpain-2	0.7
CN1C[C@H](c2cccc(C(F)(F)F)c2)[C@@H](C(=O)Nc2ccccc2F)C1=O	DHODH (Homo sapiens, UniProt Q02127)	enzyme activity, DCPIP colorimetric			baseline: IC50 human over Setaria italica	~100 fold
COc1ccc(/C(C)=N/NC(=O)CSc2nc3ccccc3c(=O)n2CCc2ccc(S(N)(=O)=O)cc2)cc1	CA12	inhibitor, stopped-flow			baseline: Ki hCA I over Ki hCA XII	10.9
CCC(NC(=O)C(CC(C)C)NC(=O)CCc1ccccc1)C(=O)C(=O)NCc1cc(OC)cc(OC)c1 (stereo not drawn)	Capn2		mouse pons-cerebellum membranes	with: calcium 2 mM	baseline: IC50 calpain-1 over calpain-2	14.9
NS(=O)(=O)c1ccc(CCn2c(SCC(=O)N/N=C/c3ccccc3O)nc3ccccc3c2=O)cc1	CA12	inhibitor, stopped-flow			baseline: Ki hCA II over Ki hCA XII	2.7
CC(C)[C@H](NC(=O)[C@H](Cc1ccccc1)NC(=O)c1ccc(C(C)(C)C)cc1)C(=O)N[C@@H](CCCN1CCOCC1)C(=O)N[C@@H](CCCCN(C)C1CC2CCC1C2)C(=O)N[C@@H](CO)C(N)=O (stereo partly drawn)	Chromobox protein homolog 8	TR-FRET			baseline: CBX8 over CBX7	58 fold
CCC(NC(=O)C(CC(C)C)NC(=O)CCc1ccccc1)C(=O)C(=O)NCc1cccc(OC)c1 (stereo not drawn)	Capn2		mouse pons-cerebellum membranes	with: calcium 2 mM	baseline: IC50 calpain-1 over calpain-2	24.1
NS(=O)(=O)c1c(F)c(F)c(S(=O)(=O)CCO)c(N[C@H]2CCc3ccccc32)c1F	CA12	thermal shift			baseline: Kd CA XII over Kd CA II	0.5
CN1CCC=C(c2nsnc2OCCCN2CCN(CCCCC3CCN(CC(=O)N4c5ccccc5NC(=O)c5ccccc54)CC3)CC2)C1	CHRM4 (Homo sapiens, UniProt P08173)	radioligand competition binding	CHO cells		baseline: Ki M4 over Ki M2	29
COC(=O)CCCNC(=O)c1cc(S(N)(=O)=O)c(Cl)cc1NC1CCCCC1	CA12	thermal shift			baseline: Kd CA II over Kd CA XII	27
CN(C)CCNC(=O)c1cccc2c(NCCCCc3c(N)nc(N)nc3N)c3ccccc3nc12	Muscleblind-like protein 1, with (CCUG)6 RNA (Homo sapiens, UniProt Q9NR56)	RNA-protein binding, inhibitor, gel shift			baseline: MBNL1-(CCUG)6 over MBNL1-(CUG)12	~7 fold
COc1ccccc1/C=N/NC(=O)CSc1nc2ccccc2c(=O)n1CCc1ccc(S(N)(=O)=O)cc1	CA12	inhibitor, stopped-flow			baseline: Ki hCA II over Ki hCA XII	2.85
NS(=O)(=O)c1c(F)c(F)c(S(=O)(=O)CCc2ccccc2)c(N[C@H]2CCc3ccccc32)c1F	CA12	thermal shift			baseline: Kd CA XII over Kd CA II	14
C[C@@H](N)C1CCN(S(=O)(=O)c2cccc3c(=O)[nH]ccc23)CC1	ROCK2 (Homo sapiens, UniProt O75116)	enzyme activity, inhibitor, radiometric filter binding		with: ATP at Km	baseline: IC50 ROCK1 over IC50 target	17 fold
C/C(=N\NC(=O)CSc1nc2ccccc2c(=O)n1CCc1ccc(S(N)(=O)=O)cc1)c1ccccc1	CA12	inhibitor, stopped-flow			baseline: Ki hCA II over Ki hCA XII	5.32
NS(=O)(=O)c1ccc(Nc2nc3nccc(-c4ccc5ccccc5c4)n3n2)cc1	CA12	stopped-flow CO2 hydrase			baseline: Ki hCA IV over Ki CA12	131
CCC(NC(=O)C(CC(C)C)NC(=O)NCc1ccccc1)C(=O)C(=O)NCc1cc(F)cc(OC)c1 (stereo not drawn)	Capn2		mouse pons-cerebellum membranes	with: calcium 2 mM	baseline: IC50 calpain-1 over calpain-2	1.9
C[C@H](NC(=O)[C@H](Cc1ccccc1)NC(=O)c1ccc(C(F)(F)F)cc1)C(=O)N[C@H](C(=O)N[C@@H](CCCC[N+](C)(C)C)C(=O)N[C@@H](CO)C(N)=O)C1CCCC1	Chromobox protein homolog 8	binding, isothermal titration calorimetry			baseline: Cbx7 over Chromobox protein homolog 8 Kd	7.3 fold
NC(=O)C1CCNC(=O)C(CCCNC(=O)c2cnccn2)NC(=O)C(Cc2ccco2)NC(=O)C(CC2CC2)NC(=O)C=CC(=O)N1 (stereo not drawn)	ABL1 (Homo sapiens, UniProt P00519)	kinase activity			baseline: Abl IC50 over Src IC50	> 50 fold
NS(=O)(=O)c1c(F)c(F)c(SCCc2ccc(C(=O)O)cc2)c(F)c1F	CA12	thermal shift			baseline: Kd CA XII over Kd CA II	42
C[C@H](NC(=O)[C@H](Cc1ccccc1)NC(=O)c1ccc(C(C)(C)C)cc1)C(=O)N[C@H](C(=O)N[C@@H](CCCC[N+](C)(C)C)C(=O)N[C@@H](CO)C(N)=O)C1CCCC1	Chromobox protein homolog 6 (Homo sapiens, UniProt O95503)	competitive fluorescence polarization			baseline: Cbx7 over Chromobox protein homolog 6	8.5 fold
NS(=O)(=O)c1c(F)c(F)c(S(=O)(=O)CCc2ccccc2)c(NCc2ccccc2)c1F	CA12	thermal shift			baseline: Kd CA XII over Kd CA II	6
COc1cccc(/C(C)=N/NC(=O)CSc2nc3ccccc3c(=O)n2CCc2ccc(S(N)(=O)=O)cc2)c1	CA12	inhibitor, stopped-flow			baseline: Ki hCA I over Ki hCA XII	20.4
NS(=O)(=O)c1c(F)c(F)cc(F)c1NC1CCCCCCC1	CA12	thermal shift			baseline: Kd CA XII over Kd CA II	3.1
CCN(CC)CCCC[C@H](NC(=O)[C@@H](NC(=O)[C@H](C)NC(=O)[C@H](Cc1ccccc1)NC(=O)c1ccc(C(F)(F)F)cc1)C1CCCC1)C(=O)N[C@@H](CO)C(N)=O	Chromobox protein homolog 8	competitive fluorescence polarization			baseline: Cbx7 over Chromobox protein homolog 8	12 fold
NS(=O)(=O)c1cc(C(=O)NCCCC(=O)O)c(NC2CCCCC2)cc1Cl	CA12	fluorescent thermal shift			baseline: Kd other CA isoforms over CA XII	≤ 10000 fold
COc1cc(-c2ccnc3nc(Nc4ccc(S(N)(=O)=O)cc4)nn23)cc(OC)c1OC	CA12	stopped-flow CO2 hydrase			baseline: Ki hCA IV over Ki CA12	50.1

For quick reference, copied from above:
SMILES	target	assay	test system	conditions	scale	selectivity ratio
COc1ccc(/C(C)=N/NC(=O)CSc2nc3ccccc3c(=O)n2CCc2ccc(S(N)(=O)=O)cc2)cc1	CA12	inhibitor, stopped-flow			baseline: Ki hCA I over Ki hCA XII	10.9
NS(=O)(=O)c1c(F)c(F)cc(F)c1NC1CCCCCCC1	CA12	thermal shift			baseline: Kd CA XII over Kd CA II	3.1
CCN(CC)CCCC[C@H](NC(=O)[C@@H](NC(=O)[C@H](C)NC(=O)[C@H](Cc1ccccc1)NC(=O)c1ccc(C(F)(F)F)cc1)C1CCCC1)C(=O)N[C@@H](CO)C(N)=O	Chromobox protein homolog 8	competitive fluorescence polarization			baseline: Cbx7 over Chromobox protein homolog 8	12 fold
COc1cc(-c2ccnc3nc(Nc4ccc(S(N)(=O)=O)cc4)nn23)cc(OC)c1OC	CA12	stopped-flow CO2 hydrase			baseline: Ki hCA IV over Ki CA12	50.1
CC(C)[C@H](NC(=O)[C@H](Cc1ccccc1)NC(=O)c1ccc(C(C)(C)C)cc1)C(=O)N[C@@H](CCCN1CCOCC1)C(=O)N[C@@H](CCCCN(C)C1CC2CCC1C2)C(=O)N[C@@H](CO)C(N)=O (stereo partly drawn)	Chromobox protein homolog 8	TR-FRET			baseline: CBX8 over CBX7	58 fold
